Measurements pooled from the literature.
Compare with care: the assays were run in different laboratories.
Target: Rho-associated protein kinase 2 (ROCK2, Homo sapiens, UniProt O75116)
Sequence of UniProt O75116 (whole entry, looked up): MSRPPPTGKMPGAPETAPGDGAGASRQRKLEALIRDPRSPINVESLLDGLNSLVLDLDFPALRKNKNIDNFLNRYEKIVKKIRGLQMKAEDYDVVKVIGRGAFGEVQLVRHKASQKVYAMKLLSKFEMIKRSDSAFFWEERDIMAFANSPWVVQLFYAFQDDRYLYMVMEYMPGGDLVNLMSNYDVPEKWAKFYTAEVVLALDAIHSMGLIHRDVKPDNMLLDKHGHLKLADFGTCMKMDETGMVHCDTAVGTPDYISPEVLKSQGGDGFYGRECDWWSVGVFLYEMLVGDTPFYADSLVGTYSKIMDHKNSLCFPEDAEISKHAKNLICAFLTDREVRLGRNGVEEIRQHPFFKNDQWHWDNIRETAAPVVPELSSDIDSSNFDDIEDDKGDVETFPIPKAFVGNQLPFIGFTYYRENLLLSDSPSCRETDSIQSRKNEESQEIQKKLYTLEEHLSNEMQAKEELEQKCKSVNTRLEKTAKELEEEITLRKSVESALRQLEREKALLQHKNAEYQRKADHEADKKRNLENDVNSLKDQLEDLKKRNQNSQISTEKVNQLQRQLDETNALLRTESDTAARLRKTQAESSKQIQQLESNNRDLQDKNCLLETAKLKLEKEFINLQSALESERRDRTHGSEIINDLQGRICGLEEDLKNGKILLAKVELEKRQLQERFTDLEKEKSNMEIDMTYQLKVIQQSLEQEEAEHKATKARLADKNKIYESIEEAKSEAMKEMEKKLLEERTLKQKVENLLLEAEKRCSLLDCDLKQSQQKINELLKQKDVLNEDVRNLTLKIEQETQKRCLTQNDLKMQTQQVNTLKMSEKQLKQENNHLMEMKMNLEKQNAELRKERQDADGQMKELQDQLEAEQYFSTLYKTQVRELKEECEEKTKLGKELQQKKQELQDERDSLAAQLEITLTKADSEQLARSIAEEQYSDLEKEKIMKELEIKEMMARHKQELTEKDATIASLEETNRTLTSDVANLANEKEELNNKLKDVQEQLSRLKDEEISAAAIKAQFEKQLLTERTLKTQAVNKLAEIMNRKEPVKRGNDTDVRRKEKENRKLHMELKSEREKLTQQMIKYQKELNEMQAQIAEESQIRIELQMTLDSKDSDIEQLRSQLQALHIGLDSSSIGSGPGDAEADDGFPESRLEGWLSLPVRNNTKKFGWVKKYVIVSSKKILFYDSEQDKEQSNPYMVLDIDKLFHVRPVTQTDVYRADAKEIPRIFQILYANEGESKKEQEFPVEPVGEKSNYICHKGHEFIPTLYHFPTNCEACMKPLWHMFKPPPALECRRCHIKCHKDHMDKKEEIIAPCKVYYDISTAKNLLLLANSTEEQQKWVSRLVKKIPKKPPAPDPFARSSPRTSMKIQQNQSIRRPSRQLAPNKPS

SMILES	test	setting	scale	quantity	value
Cc1cnc2nc1Nc1cccc(c1)COC/C=C/COCc1cc(ccc1OCCN1CCOCC1)N2	binding, competition with immobilised ligand	0.1 µM		remaining binding	78%
CNC(=O)C[C@H](Cc1ccc(C#N)cc1)NC(=O)c1cc(-c2ccc(CN[C@H](C)c3ccc(C)cc3)o2)ccc1Cl	enzyme activity, inhibitor	1 µM		activity vs control	98%
Cc1cccc(-c2ccc3nc(NC(=O)C4CCCCC4)nn3c2)c1	enzyme activity, Dundee kinase panel	10 µM		remaining activity	98%
C=CC(=O)Nc1cccc(-c2cnc3[nH]cc(C(=O)NC(C)(C)C)c3n2)c1	enzyme activity, inhibitor	0.1 µM		inhibition	41%
O=C(Cc1ccc(OCc2ccccc2)cc1)NC1(C(=O)O)CCN(C(=O)c2ccc(-c3cccc(Cl)c3)cc2)CC1	enzyme activity, inhibitor	10 µM		activity vs control	109%
Cc1cccc(O[C@H]2CCC[C@@H](C(C)CNCc3ccncc3)C2)c1 (relative stereo)	enzyme activity, inhibitor	1 µM		inhibition	7%
Cc1ccc(-c2c(/C=C(\C#N)C(=O)NC(C)C)n(CCCO)c3ncnc(N)c23)cc1	cell-free assay, competition with immobilised ligand	1 µM		remaining binding	100%
NC(=O)C[C@H]1CCc2sc3ncnc(O[C@H]4CC[C@H](N5CCOCC5)CC4)c3c21	enzyme activity, inhibitor	10 µM		inhibition	6%
COc1ccc(NC(=O)Nc2ccc3c(c2)C(=O)N(C(C)CO)CC(C)C(CN(C)Cc2ccc4c(c2)OCO4)O3)cc1 (centres unmarked)	kinase activity, KinaseProfiler	0.03 µM, species human	relative to: control	remaining activity	101%
CN1CCN(Cc2ccc(-c3ccc(CO[C@H]4CCC[C@@H]4NC(=O)c4cc(-c5cnn(C)c5)cnc4N)cc3)cc2)CC1	enzyme activity, inhibitor	0.1 µM		inhibition	8%
CC1CCN(c2ccc(-c3n[nH]c(=O)c4ncccc34)cc2)CC1	cell-free assay, competition with immobilised ligand	10 µM		remaining binding	27%
COc1c(OCCCN2CCOCC2)ccc2c1N=C(NC(=O)c1cnc(N)nc1)N1CCN=C21	kinase activity, inhibitor	1 µM	relative to: untreated control	remaining activity	96%
C=C1CCCCCCCCCC(CO)C1=O (centres unmarked)	cell-free assay, competition with immobilised ligand	10 µM		remaining binding	99%
COc1cc(Nc2nc(C)cc(-c3cnn4nc(OC)ccc34)n2)cc(C(F)(F)F)c1	binding, competition with immobilised ligand	1 µM		remaining binding	100%
O=C=[N][Ru-4]123([n]4c5ccc(O)cc5c5c6c(c7cc(F)c[n+]1c7c54)C(=O)NC6=O)[S+]1CC[S+]2CC[S+]3CC1 (centres unmarked)	enzyme activity	100 nM, human enzyme, together with: 10 µM ATP	relative to: untreated	remaining activity	99%
COc1ccc(C(=O)/C=C/c2ccccc2-c2c[nH]c3ccc(C#N)cc23)c(O)c1	enzyme activity, inhibitor	20 µM		inhibition	6%
C=CC(=O)N1CCc2ccc(-n3c(=O)ccc4cnc5ccc(-c6cnn(C)c6)cc5c43)cc21	KINOMEscan	1 µM	relative to: DMSO control	remaining binding	100%
CN1CCN(Cc2ccc(NC(=O)c3cccc(C#Cc4cnc(N)c5ncccc45)c3)cc2C(F)(F)F)CC1	cell-free assay, competition with immobilised ligand	50 nM		remaining binding	69%
C=CC(=O)N1CCCC(n2c(=O)c3ncccc3n(Cc3ccc(Oc4ccccc4)cc3)c2=O)C1 (centres unmarked)	cell-free assay, competition with immobilised ligand	1 µM		remaining binding	80%
CCn1cc(C(=O)O)c(=O)c2c(N)c(F)c(NC3CCCCC3)cc21	kinase activity	0.1 µM, together with: ATP at Km		inhibition	1.4%
Cc1cccc(-c2ccc3nc(NC(=O)C4CCCO4)nn3c2)c1 (centres unmarked)	enzyme activity, Dundee kinase panel	10 µM		remaining activity	95%
Nc1ncc(-c2cc(-c3cnn(CC(F)(F)F)c3)ncc2F)nc1C(=O)NC1CNCC(F)C1 (centres unmarked)	enzyme activity	1 µM	relative to: DMSO control	remaining activity	98.8%
CN1CC[C@@H](COc2cnc(C#N)cc2-c2ccn3nc(NC(=O)C4CC4)cc3c2)C1	enzyme activity, inhibitor	1 µM		inhibition	5%

Some of these lines once more:
SMILES	test	setting	scale	quantity	value
CNC(=O)C[C@H](Cc1ccc(C#N)cc1)NC(=O)c1cc(-c2ccc(CN[C@H](C)c3ccc(C)cc3)o2)ccc1Cl	enzyme activity, inhibitor	1 µM		activity vs control	98%
Cc1cccc(-c2ccc3nc(NC(=O)C4CCCCC4)nn3c2)c1	enzyme activity, Dundee kinase panel	10 µM		remaining activity	98%
